# Published values collected from several papers.
# Compare with care: the assays were run in different laboratories. “And” joins repeats or separate records; there may be more than shown. Numbers after ± are the reported error.
SMILES,tested on,test,system,setting,how to read,endpoint,value
CC(C)n1ncc2c(C(=O)NCC3(C)CNC3)cc(C3CC3)nc21,Enterovirus D68,viral replication,"RD, US/MO/14-18947",1 µM,baseline: untreated,plaque area,0%
Oc1ccccc1-c1n[nH]cc1-c1ccnc2ccccc12,AKL1 (Candida albicans),"kinase binding, MIB/MS competition",Candida albicans lysate,10 µM,baseline: DMSO,log2 fold change,0.38
NS(=O)(=O)c1ccc(N/N=C2\C(=O)Nc3ccc4ncccc4c32)cc1,Trypanosoma brucei,,,unit not given,baseline: pEC50 T. brucei minus pTC50 HepG2,selectivity,> 3.1
N#CC1=C(N)n2c(s/c(=C\c3cccs3)c2=O)=C(C#N)C1c1cccs1 (centres unmarked),Mus musculus,"gene silencing, high-content imaging",LDR reporter GFP cells,retest run 2,,maximal activity,24%
CC(C)NCC(O)c1ccc(O)c(O)c1 (centres unmarked),β2 adrenergic receptor E122Q (human),PRESTO-Tango luciferase,HTLA cells,3 nM,,β-arrestin2 recruitment,320 RLU and 278 RLU and 291 RLU and 285 RLU and 239 RLU
c1coc(-c2n[nH]cc2-c2ccnc3ccccc23)c1,CTK1 (Candida albicans),"kinase binding, MIB/MS competition",Candida albicans lysate,10 µM,baseline: DMSO,log2 fold change,-0.1
N#Cc1ccc2c(-c3ccncc3)c(-c3ccc(F)cc3)nn2c1,,"kinase binding, competitor, MIB/MS competition, measured: IRE1",Candida albicans cell lysate,10 µM,baseline: DMSO,log2 fold change,0.186
CC(C)C[C@@H](/C=C/S(C)(=O)=O)NC(=O)[C@H](CC(C)C)NC(=O)[C@H](CC(C)C)NC(=O)OCc1ccccc1,Mus musculus,"gene silencing, high-content imaging",LDR reporter GFP cells,retest run 1,,maximal activity,54%
Cn1cc(-c2ccc(-c3cncc(Cl)c3N3CCC4(CCNC4=O)CC3)cc2)cn1,COLO 205,"gene expression, microarray, measured: SLPI mRNA",,"concentration not given, 6 h",baseline: untreated cells,log2 fold change,4.97
Nc1ncc(-c2cccc(S(N)(=O)=O)c2)c2scc(-c3ccc(F)c(Cl)c3)c12,Trypanosoma brucei,,,unit not given,baseline: pEC50 T. brucei minus pTC50 HepG2,selectivity,0.7
COc1ccc2c(c1)c1ccc3c(c1n2C)C(=O)C=CC3=O,Mus musculus,"gene silencing, high-content imaging",LDR reporter GFP cells,retest run 2,,maximal activity,58%
COc1ccc(C2NC(C(=O)O)CC3c4ccccc4NC32)cc1CN1CCN(c2ccc(F)cc2)CC1 (centres unmarked),NAADP receptor,"antagonist, fluo-3 fluorescence","Lytechinus pictus, egg homogenate","up to 6 µM, with: NAADP 30 to 50 nM",,NAADP-mediated Ca2+ release,inactive
CC1=C(C(=O)Nc2ccc3[nH]ncc3c2)C(c2ccc3ccccc3c2)CC(=O)N1 (centres unmarked),Trypanosoma brucei,,,unit not given,baseline: pEC50 T. brucei minus pTC50 HepG2,selectivity,1.1
CC(C)C(=O)N1CCN(c2ccc(NC(=O)c3ccc([N+](=O)[O-])o3)cc2Cl)CC1,Mus musculus,"gene silencing, high-content imaging",LDR reporter GFP cells,retest run 1,,maximal activity,38%
OC(CCN1CCCCC1)(c1ccccc1)C1CC2C=CC1C2 (centres unmarked),,resting-state EEG,healthy elderly humans,"oral, 2 mg, eyes open, LS mean",baseline: baseline,change in EEG Beta3-power Pz-O2,18.2%
Cc1nn(C)c2cc(N(C)c3ccnc(Nc4cccc(S(N)(=O)=O)c4)n3)ccc12,Trypanosoma brucei,,,unit not given,baseline: pEC50 T. brucei minus pTC50 HepG2,selectivity,2.1
C[C@H](Oc1ccc(Br)cc1-c1ccon1)C(=O)O,,relative refractory period,"human, tibialis anterior muscle","100 mg, SAD",,difference from placebo,0.221 ms
COC(=O)c1ccc2c(c1)C(=Cc1cc(Br)c(O)c(Br)c1)C(=O)N2,Trypanosoma brucei,,,unit not given,baseline: pEC50 T. brucei minus pTC50 HepG2,selectivity,> 0.6
CSCCNc1nc(SCCC(F)(F)F)nc2c1ncn2[C@@H]1O[C@H](COP(=O)(O)OP(=O)(O)C(Cl)(Cl)P(=O)(O)O)[C@@H](O)[C@H]1O,,light transmittance aggregometry,"human patients, platelet-rich plasma","dose not given, 3 h, with: ADP 20 µM",,inhibition of platelet aggregation,18.7 ± 20.2%
Nc1nccc(-c2c(-c3ccc(F)cc3)ncn2C2CCC(O)CC2)n1 (centres unmarked),Trypanosoma brucei,,,unit not given,baseline: pEC50 T. brucei minus pTC50 HepG2,selectivity,> 1.9
CCn1c(=O)c(-c2cc[nH]n2)cc2c(C)nc(N)nc21,Enterovirus A71,histopathology,"EV71-infected suckling mice, liver",0.25 mg/kg,direction not given,inflammatory infiltration score,0
CC(=O)N[C@@H](CSC(=O)[C@]1([C@@H](O)C(C)C)NC(=O)[C@H](C)[C@@H]1O)C(=O)O,Mus musculus,"gene silencing, high-content imaging",LDR reporter GFP cells,retest run 2,,AC50,31.6 µM
O=C(O)CNC(=O)Cc1ccccc1,,,"ventricular cardiomyocytes, C57BL/6 mouse","dose not given, 0.268 s",,sarcomere length,1.67 µm
CCCCOC(=O)Cn1c2ccc(OC)cc2c2nc3ccccc3nc21,Mus musculus,"gene silencing, high-content imaging",LDR reporter GFP cells,retest run 2,,maximal activity,50%
Fc1ccc(-c2ncn(C3CCNCC3)c2-c2ccnc(Oc3ccc(Oc4ccccc4)cc3)n2)cc1,Trypanosoma brucei,,,unit not given,baseline: pEC50 T. brucei minus pTC50 HepG2,selectivity,1
Cc1ccc(Sc2cc(NCCCO)c([N+](=O)[O-])c3nonc23)cc1,Mus musculus,"gene silencing, high-content imaging",LDR reporter GFP cells,retest run 2,,maximal activity,97%
C[C@H]1C[C@H]2CSC(N)=N[C@@]2(c2nc(NC(=O)c3ccc(OC(F)F)cn3)cs2)CO1,,measured: Aβ1-40,"healthy adults, plasma","15 mg once daily, day 7",baseline: placebo,percent change from baseline,-71.4%
CCOC(=O)c1cc2c(=O)n3ccccc3nc2n(Cc2ccco2)c1=NC(=O)c1ccc(Br)cc1,Mus musculus,"gene silencing, high-content imaging",LDR reporter GFP cells,retest run 2,,maximal activity,65%
COc1cccc(-n2ncc3c(N/N=C/c4ccncc4)ncnc32)c1,Trypanosoma brucei,,,unit not given,baseline: pEC50 T. brucei minus pTC50 HepG2,selectivity,> 2.4
